Published values from different studies.
Values joined by “and” are separate records of one study, mostly repeats; a detail may differ. Numbers after ± are the reported error.
YWHAG/RELA phospho-Ser45 p65 peptide: YWHAG/RELA, phospho-Ser45 p65 peptide (Homo sapiens, UniProt P61981+Q04206)
UniProt P61981, sequence (whole entry, looked up): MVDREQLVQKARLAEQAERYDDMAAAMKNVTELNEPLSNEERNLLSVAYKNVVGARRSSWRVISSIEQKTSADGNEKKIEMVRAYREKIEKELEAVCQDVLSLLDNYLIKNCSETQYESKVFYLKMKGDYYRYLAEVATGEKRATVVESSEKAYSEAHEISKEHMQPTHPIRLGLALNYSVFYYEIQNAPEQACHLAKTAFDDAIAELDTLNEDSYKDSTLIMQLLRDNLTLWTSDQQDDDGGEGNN
UniProt Q04206, sequence (whole entry, looked up): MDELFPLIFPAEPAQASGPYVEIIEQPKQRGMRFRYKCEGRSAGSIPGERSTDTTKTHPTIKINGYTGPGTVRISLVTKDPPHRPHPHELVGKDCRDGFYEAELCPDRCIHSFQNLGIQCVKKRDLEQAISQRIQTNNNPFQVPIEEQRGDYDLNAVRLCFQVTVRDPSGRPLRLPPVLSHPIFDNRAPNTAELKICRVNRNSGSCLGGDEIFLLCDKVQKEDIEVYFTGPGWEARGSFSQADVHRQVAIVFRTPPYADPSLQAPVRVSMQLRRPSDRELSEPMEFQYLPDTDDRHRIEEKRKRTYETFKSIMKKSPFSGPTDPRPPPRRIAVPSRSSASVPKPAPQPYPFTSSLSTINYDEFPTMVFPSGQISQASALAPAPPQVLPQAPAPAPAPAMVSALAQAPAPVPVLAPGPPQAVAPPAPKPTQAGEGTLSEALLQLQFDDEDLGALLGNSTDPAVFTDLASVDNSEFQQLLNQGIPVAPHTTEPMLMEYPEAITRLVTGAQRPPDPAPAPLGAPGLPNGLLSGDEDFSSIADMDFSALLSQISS
Nuclear receptor subfamily 2 group C member 2 ligand-binding domain: Nuclear receptor subfamily 2 group C member 2, ligand-binding domain (Homo sapiens, UniProt P49116)
UniProt P49116, sequence (whole entry, looked up): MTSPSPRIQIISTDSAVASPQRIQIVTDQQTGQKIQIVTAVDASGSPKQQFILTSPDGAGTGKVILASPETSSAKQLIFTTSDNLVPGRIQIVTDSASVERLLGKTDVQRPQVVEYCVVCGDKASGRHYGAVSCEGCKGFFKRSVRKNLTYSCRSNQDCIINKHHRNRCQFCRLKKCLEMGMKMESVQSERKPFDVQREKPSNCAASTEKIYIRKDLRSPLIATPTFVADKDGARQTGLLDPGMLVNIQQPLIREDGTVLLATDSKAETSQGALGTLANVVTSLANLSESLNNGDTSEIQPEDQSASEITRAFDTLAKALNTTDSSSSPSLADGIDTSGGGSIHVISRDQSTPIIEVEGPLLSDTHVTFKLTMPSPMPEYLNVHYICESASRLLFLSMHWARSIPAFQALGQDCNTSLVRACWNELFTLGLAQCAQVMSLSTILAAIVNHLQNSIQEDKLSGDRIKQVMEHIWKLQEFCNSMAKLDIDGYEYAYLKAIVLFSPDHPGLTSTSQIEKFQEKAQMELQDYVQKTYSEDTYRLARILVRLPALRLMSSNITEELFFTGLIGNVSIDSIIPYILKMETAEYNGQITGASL

| Structure (SMILES) | target or system | test | test system | setting | scale | quantity | value |
| --- | --- | --- | --- | --- | --- | --- | --- |
| O=Cc1ccc(-n2ccnc2)cc1 | YWHAG/RELA phospho-Ser45 p65 peptide | ternary complex formation, stabilizer, fluorescence anisotropy | – | – | – | EC50 | > 1000 µM |
| C=C(C)[C@@H](CC=C(C)C)C[C@@]12C[C@@H](CC=C(C)C)C(C)(C)[C@@](CC=C(C)C)(C(=O)C(C(=O)c3ccc(O)c(O)c3)=C1O)C2=O | OCI-Ly1 | – | – | 0.5 µM, 120 h | – | viability | 2.09% |
| O=Cc1ccc(-n2ccnc2Br)nc1 | YWHAG/RELA phospho-Ser45 p65 peptide | ternary complex formation, stabilizer, fluorescence anisotropy | – | – | – | EC50 | > 1000 µM |
| Nc1ncnc2c1ncn2[C@@H]1O[C@H](COP(=O)(O)OP(=O)(O)OP(=O)(O)O)[C@@H](O)[C@H]1O | PMA-differentiated Pam3CSK4-primed THP-1 CASP1 knockout | inducer, ELISA | – | concentration not given | – | IL-1beta release | 20.5 pg/mL and 21.4 pg/mL and 25.3 pg/mL |
| OC[C@H]1OC(O)[C@H](O)[C@@H](O)[C@@H]1O (stereo partly shown) | Nuclear receptor subfamily 2 group C member 2 ligand-binding domain | SPR imaging | – | – | – | Kd | 0.0274 nM |
| Clc1nc(NCc2ccco2)c2[nH]cnc2n1 | iPSC-derived cardiomyocytes | RNA-seq, refers to: chrX exon ending 73994961 | – | unit not given | reference: DMSO minus compound | ΔPSI | -0.204 |
| Cn1c(Nc2nc3ccc(C(F)(F)F)cc3s2)nc2cc(C(=O)NCCOCCO)ccc21 | SH-SY5Y | RNA-seq, refers to: FOSL2 mRNA | – | 5 µM, 5 h | reference: untreated cells | fold change | 1.63 |
| CCc1cc(C(=O)NC)c2nccc(N3CCc4c(cc(Cn5ccnc5)cc4-c4cn(C)nc4C(F)(F)F)C3=O)c2c1 | – | – | Sprague Dawley rat, male, plasma | oral, 50 mg/kg single dose, day 1, toxicokinetic satellite group | – | AUC extrapolated fraction | 0.3% |
| Nc1ncnc2c1ncn2[C@@H]1O[C@H](C[C@@H](N)CC[C@H](N)C(=O)O)[C@@H](O)[C@H]1O | OCI-Ly1 | – | – | 0.1 µM, 120 h | – | viability | 113% |
| CC(=O)c1nn(-c2ccc(Cl)cc2)/c(=N/N=C(\C)c2ccc(NC(=O)c3ccc(C)cc3)cc2)s1 | HepG2 | – | – | 5 µM | – | toxicity | 96.9% |
| Cc1ccc(C(=O)Nc2ccc(S(=O)(=O)O)c3cc(S(=O)(=O)O)cc(S(=O)(=O)O)c23)cc1NC(=O)c1cccc(NC(=O)Nc2cccc(C(=O)Nc3cc(C(=O)Nc4ccc(S(=O)(=O)O)c5cc(S(=O)(=O)O)cc(S(=O)(=O)O)c45)ccc3C)c2)c1 | OCI-Ly1 | – | – | 0.1 µM, 120 h | – | viability | 196% |
| CN1CCN(C(=O)[C@H](CCCN[C@@H]2C[C@H]2c2ccc(F)cc2)NC(=O)c2ccc(-n3ccnn3)cc2)CC1 | LN-95 and LAPC4 cells | western blot | – | 0.01 to 1 µM, 1 or 3 days | – | H3K4me2 level | increased |
| CCc1cc2c(N3CCN(c4nncs4)CC3)ncnc2s1 | OCI-Ly1 | – | – | 0.5 µM, 120 h | – | viability | 88.8% |
| CCN(CC)Cc1cc(Nc2ccnc3cc(Cl)ccc23)ccc1O | COS-7 | – | – | 100 µM, 24 h, 0.1% DMSO, unit not given | reference: control | confluence | 0.88 ± 0.08 |
| O=C(O)CCNc1cc(N2CCc3ccccc3CC2)nc(-c2cccnc2)n1 | OCI-Ly1 | – | – | 0.5 µM, 120 h | – | viability | 132% |
| Cn1cc(-c2ccc(-c3cncc(Cl)c3N3CCC4(CCNC4=O)CC3)cc2)cn1 | COLO 205 | gene expression, microarray, refers to: CBS mRNA | – | concentration not given, 2 h | reference: untreated cells | log2 fold change | 3.25 |

| Structure (SMILES) | target or system | test | test system | setting | scale | quantity | value |
| --- | --- | --- | --- | --- | --- | --- | --- |
| Cc1cccc(-c2[nH]c(CNc3ccccc3F)nc2-c2ccc3ncnn3c2)n1 | pomalidomide-resistant MM1.S cells | XTT | – | 2.25 µM | higher = more viable cells | XTT absorbance | 2.3 E-1 and 1.8 E-1 and 1.6 E-1 |
| CC(C)C[C@H](NC(=O)C[C@H](O)[C@H](CC(C)C)NC(=O)[C@H](Cc1c[nH]cn1)NC(=O)CNC(=O)[C@@H](NC(=O)[C@H](C)NC(=O)[C@H](Cc1c[nH]c2ccccc12)NC(=O)[C@H](CCC(N)=O)NC(=O)[C@@H](Cc1ccccc1)NC(=O)COCCOCCNC(=O)CCC(C(=O)O)N1CCN(CC(=O)O)CCN(CC(=O)O)CC1)C(C)C)C(N)=O (stereo partly shown) [lutetium-177 labelled] | – | – | female BALB/c nu/nu mice, intestines | intravenous, 50 pmol, 1 h | – | tissue uptake | 4 ± 3 %ID/g |
| Cc1nc2ccc(NC(=O)Cc3ccc(OC(F)(F)F)cc3)cc2[nH]1 | sample A patient iPSC-derived NPCs | MTS | – | 10 µM, 24 h | reference: vehicle | viability | 104 ± 1.05% |
| CC(=O)c1c(C)cc2cc(O)cc(O[C@@H]3O[C@H](CO)[C@@H](O)[C@H](O)[C@H]3O)c2c1O | HepaRG co-cultured with HK-2 | MTT | – | 16.67 µM, 24 h | reference: untreated control | cell viability | 99.1 ± 14% |
| C[n+]1cc2c3c(ccc2c2ccc4cc5c(cc4c21)OCO5)OCO3 | iPSC-derived cardiomyocytes | concentration-response fit | – | concentration not given | reference: vehicle | fitted bottom MyBP-C level | 0% |
| CCn1cc(-c2cc(Cn3ccnc3)cc3c2CCN([C@H](c2cc(OC)ccn2)C2CC2)C3=O)c(C(F)(F)F)n1 | RERF-LC-Ad2 | cell growth, inhibitor | – | 120 h | – | EC50 | 11.1 µM |
| C[C@H](Nc1ccc2c(c1)OCCn1cc(N3C(=O)OC[C@H]3C(F)F)nc1-2)C(N)=O | HCC1954 | resazurin growth rate inhibition | – | 72 h | – | GR50 | 12.7 nM |
| O=C(/C=C/C=C/C=C/C1CCCCC1)NC1=C[C@@](O)(/C=C/C=C/C=C/C(=O)NC2=C(O)CCC2=O)[C@@H]2O[C@@H]2C1=O | ABC-1 | cell growth, CellTiter-Glo | – | 78 h | – | GI50 | 10.7 µM |
| Nc1ncnc2c1ncn2[C@@H]1O[C@H](CO)[C@@H](O)[C@H]1O | activated human T cells | refers to: ADP | – | 30 µM | reference: DMSO | log2 fold change | 0.7 and 0.432 and 0.3 |
| Cc1ncsc1-c1ccc([C@H](C)NC(=O)[C@H]2C[C@H](O)CN2C(=O)[C@@H](NC(=O)CCCCCCCCCNC(=O)c2ccc3c(c2)[C@H](NC(=O)c2cc(-c4ccc(C(=O)N(C)C)c(O)c4)on2)CC3)C(C)(C)C)cc1 | MV4-11 | TMT proteomics, refers to: MLKL protein | – | concentration not given, 6 h | reference: DMSO | log2 fold change | -0.344 |
| COc1c(O)c(C)cc2c1C(=O)c1c(cc(O)c(O)c1O)C2=O | HepaRG co-cultured with HK-2 | MTT | – | 33.33 µM, 24 h | reference: untreated control | cell viability | 63 ± 9.83% |
| c1ccc2cc(Cn3cc[n+](Cc4ccc5ccccc5c4)c3)ccc2c1 | NCI60 NSCLC cell lines | cell growth | – | – | – | GI50 | ≤ 8.4 µM |
| Nc1nccc2c1ncn2[C@@H]1C=C(CO)[C@@H](O)[C@H]1O | OCI-Ly1 | – | – | 0.5 µM, 120 h | – | viability | 8.3% |
| CCOCC(O)COc1ccc(NC(=O)CC[S+](C)C)cc1 (stereo not shown) | Nuclear receptor subfamily 2 group C member 2 ligand-binding domain | SPR imaging | – | – | – | Kd | 4.85 nM |
| CCn1c(=O)/c(=C2\Sc3cc(Cl)ccc3N2C)s/c1=C\c1scc[n+]1Cc1ccccc1.[Cl-] | iPSC-derived cardiomyocytes | initial hit retest | – | concentration not given, 24 h, plate-normalised | – | MyBP-C protein level | 15% |

Some of these lines once more:
| Structure (SMILES) | target or system | test | test system | setting | scale | quantity | value |
| --- | --- | --- | --- | --- | --- | --- | --- |
| CCc1cc(C(=O)NC)c2nccc(N3CCc4c(cc(Cn5ccnc5)cc4-c4cn(C)nc4C(F)(F)F)C3=O)c2c1 | – | – | Sprague Dawley rat, male, plasma | oral, 50 mg/kg single dose, day 1, toxicokinetic satellite group | – | AUC extrapolated fraction | 0.3% |
| CCOCC(O)COc1ccc(NC(=O)CC[S+](C)C)cc1 (stereo not shown) | Nuclear receptor subfamily 2 group C member 2 ligand-binding domain | SPR imaging | – | – | – | Kd | 4.85 nM |
| CCc1cc2c(N3CCN(c4nncs4)CC3)ncnc2s1 | OCI-Ly1 | – | – | 0.5 µM, 120 h | – | viability | 88.8% |
